Results from different studies.
Parts stem from different laboratories: compare values within a part only. Positions count from the first letter of the parent shown.

Block 1
Target: CCND2, cyclin fold, Cln2 fusion (human)
Technique: yeast growth competition, sequencing
Sample: yeast
Notes: weak parent motif
Baseline: not given
Reading: higher = stronger binding
Starting sequence: USP37 docking peptide (human); PSAKRSLGFLPQP
| Variant | normalised enrichment score |
| --- | --- |
| K4A | 0.389 |
| P1A | -0.11 |
| S2A | 0.0449 |
| Q12A | 0.203 |
| R5A | 0.0726 |
| P13A | -0.0762 |

Block 2
Target: ABI1, truncated, D143A, DHFR fusion (Arabidopsis thaliana)
Technique: DHFR PCA, deep sequencing
Sample: yeast
Notes: methotrexate growth selection, single substitutions
With: (+)-ABA 2500 µM
Baseline: wild-type fitted maximum
Reading: higher = stronger binding
Starting sequence: PYL1, truncated, DHFR fusion (Arabidopsis thaliana); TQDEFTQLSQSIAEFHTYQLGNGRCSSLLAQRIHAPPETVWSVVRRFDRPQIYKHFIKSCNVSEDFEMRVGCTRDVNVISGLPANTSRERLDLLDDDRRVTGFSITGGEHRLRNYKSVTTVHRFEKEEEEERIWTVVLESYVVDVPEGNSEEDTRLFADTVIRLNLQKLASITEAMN
| Variant | relative binding score [%] |
| --- | --- |
| T6F | 105 |
| D65I | 84.7 |
| Q2M | 96.6 |
| N85C | 97.4 |
| T119R | 63.8 |
| L8Q | 102 |
| P37Y | 84.2 |
| C25S | 89.3 |
| G108T | 73.2 |
| N22I | 94.7 |
| D96P | 86.8 |

Block 3
Target: Histone acetyltransferase KAT6A, both winged helices, GST fusion (KAT6A, Homo sapiens, UniProt Q92794, residues 1-181)
Technique: protein binding microarray
Form: double-stranded DNA, one strand shown
Sample: in vitro
Concentration: not given
Notes: 8-mer, flanks averaged, mean of 2 arrays, mostly near background
Baseline: not given
Reading: higher = stronger binding
Construct (chain): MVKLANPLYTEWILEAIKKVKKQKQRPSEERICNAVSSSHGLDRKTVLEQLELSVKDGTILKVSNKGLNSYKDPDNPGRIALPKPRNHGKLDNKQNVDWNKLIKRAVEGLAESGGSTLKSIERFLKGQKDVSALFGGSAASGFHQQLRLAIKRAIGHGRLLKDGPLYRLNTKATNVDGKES
| Oligonucleotide | E-score |
| --- | --- |
| ATAAATAT | -0.105 |
| CAGATCAG | -0.132 |
| GTTCGTGA | -0.0117 |
| AGTATGGC | 0.0035 |
| ACTTAGCA | -0.219 |
| AAAGGAGA | -0.06 |
| CAAACAGC | -0.0868 |
| GAGAGACC | -0.104 |
| CAACATAA | 0.087 |
| CCTACGGC | 0.196 |
| AACCAACC | -0.166 |
| TAGACGAA | -0.0505 |
| GGTAAGAA | -0.0876 |
| ACGGCCTG | 0.197 |
| GGGCGCGA | 0.205 |
| AAAGGGGC | -0.185 |
| GCGAAGCA | 0.073 |
| CCAAGGCG | 0.169 |
| AAGGAGGG | -0.147 |
| ATCGCAAA | 0.108 |

Block 4
Target: ATF2, bZIP domain (human)
Technique: DHFR protein complementation
Sample: yeast
Notes: single substitutions, most at no-binding floor
Baseline: wild-type JUN-FOS pair
Reading: higher = stronger binding
Starting sequence: JUN, bZIP domain (human); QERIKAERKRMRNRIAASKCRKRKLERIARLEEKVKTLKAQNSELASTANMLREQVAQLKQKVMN; partner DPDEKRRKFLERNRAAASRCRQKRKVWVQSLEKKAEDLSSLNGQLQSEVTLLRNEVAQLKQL
| Variant | binding fitness [natural log] |
| --- | --- |
| A57V | -1.5 |
| L45C | -1.39 |
| K34E | -1.49 |
| M51E | -1.42 |
| E33M | -1.49 |
| V35W | -1.53 |
| E54L | -1.34 |
| I28E | -1.37 |
| A46H | -1.27 |
| E33H | -1.1 |
| A40C | -1.34 |
| A40K | -1.12 |
| S47Y | -1.42 |
| Q55R | -1.38 |
| A40L | -1.4 |
| I28H | -1.5 |
| A49W | -1.38 |
| A29H | -1.22 |
| A49S | -1.4 |
| N42Y | -1.49 |
| L52H | -1.5 |
| I28K | -1.51 |
| S47Q | -1.33 |
| Q55C | -1.37 |
| N42S | -1.49 |

Repeated from above (block 3):
| Oligonucleotide | E-score |
| --- | --- |
| GCGAAGCA | 0.073 |
| GAGAGACC | -0.104 |
| AAAGGAGA | -0.06 |
| AAGGAGGG | -0.147 |
| CAAACAGC | -0.0868 |
| GGGCGCGA | 0.205 |
